Published values from different studies.
Converted amounts (≈) assume the structure as drawn.
Organism: Escherichia coli

CC(C)[C@@H]1NC(=O)CNC(=O)[C@H](CC(N)=O)NC(=O)[C@H](CCCNC(=N)N)NC(=O)[C@H](Cc2ccc(O)cc2)NC(=O)[C@H](C(C)C)NC(=O)[C@@H](NC(=O)[C@@H](NC(=O)[C@H](CC(N)=O)NC(=O)[C@H](Cc2c[nH]c3ccccc23)NC(=O)[C@H](C)NC(=O)[C@H](Cc2ccccc2)NC(=O)CN)C(C)C)CSSC[C@@H](C(=O)N[C@@H](Cc2c[nH]cn2)C(=O)N[C@@H](CCCNC(=N)N)C(=O)N[C@@H](CCCNC(=N)N)C(=O)N[C@@H](C)C(=O)N[C@@H](CC(N)=O)C(N)=O)NC(=O)[C@H](C(C)C)NC(=O)[C@H](CCCNC(=N)N)NC1=O  EC50 (bactericidal activity; CGMCC 1.9; 24 h): 1.36 µM
CC(C)C[C@H](NC(=O)[C@H](CCN)NC(=O)[C@H](CCN)NC(=O)[C@@H](Cc1ccccc1)NC(=O)[C@H](CC(C)C)NC(=O)[C@H](CCN)NC(=O)[C@H](CCN)NC(=O)[C@@H](CCN)NC(=O)[C@@H](N)CSCCOC(=O)c1ccccc1)C(N)=O  MBC (ATCC 10546; 24 h, 37 °C): 8 µM
Cn1c(=O)ccc2ccc(F)c(CCNC[C@H]3CN(c4cnc5c(n4)NC(=O)CO5)C(=O)O3)c21  MIC90: 0.5 µg/mL (≈ 1.07 µM)
CC(C)C[C@H](NC(=O)[C@H](CCN)NC(=O)[C@H](CCN)NC(=O)[C@@H](Cc1ccccc1)NC(=O)[C@H](CC(C)C)NC(=O)[C@H](CCN)NC(=O)[C@H](CCN)NC(=O)[C@@H](CCN)NC(=O)CCSCCOC(=O)c1ccc(C(C)(C)C)cc1)C(N)=O  MBC (ATCC 10546; 24 h, 37 °C): 8 µM
CC[C@H](C)[C@H](NC(=O)[C@H](Cc1ccc(O)cc1)NC(=O)[C@@H](NC(=O)[C@H](Cc1c[nH]c2ccccc12)NC(=O)[C@@H]1CCCN1C(=O)[C@@H](NC(=O)[C@H](C)N)[C@@H](C)CC)[C@@H](C)CC)C(=O)N[C@@H](Cc1ccc(O)cc1)C(=O)N[C@@H](CCCNC(=N)N)C(=O)N[C@@H](CC(C)C)C(=O)N[C@@H](CC(C)C)C(=O)N[C@@H](CCCNC(=N)N)C(=O)N[C@@H](CCCCN)C(=O)NCC(=O)O  MBC (D31; 18 h, 37 °C): 7.5 µM
CCCCCCCCCCCc1c([N+](=O)[O-])oc2ccc3ccccc3c12  MIC90 (REMA): > 32 µg/mL
CCCCCCCCCC(=O)N[C@@H](Cc1c[nH]c2ccccc12)C(=O)N[C@H](CC(N)=O)C(=O)N[C@@H](CC(=O)O)C(=O)N[C@@H]1C(=O)NCC(=O)N[C@@H](CCCN)C(=O)N[C@@H](CC(=O)O)C(=O)N[C@H](C)C(=O)N[C@@H](CC(=O)O)C(=O)NCC(=O)N[C@H](CO)C(=O)N[C@@H]([C@H](C)CC(=O)O)C(=O)N[C@@H](CC(=O)c2ccccc2N)C(=O)O[C@@H]1C  MIC activity class (broth dilution; drug-resistant; concentration not given): inactive
COc1cc2oc([N+](=O)[O-])cc2c2ccccc12  MIC90 (REMA): > 32 µg/mL
CC[C@H](C)[C@H](NC(=O)[C@H](CCCNC(=N)N)NC(=O)[C@H](CCCNC(=N)N)NC(=O)[C@H](CCCNC(=N)N)NC(=O)[C@H](CCCNC(=N)N)NC(=O)[C@H](CC(C)C)NC(=O)[C@H](CCCNC(=N)N)NC(=O)[C@H](CO)NC(=O)[C@@H](N)CO)C(=O)N[C@H](C(=O)N[C@@H](CC(C)C)C(=O)N[C@@H](CCCNC(=N)N)C(=O)N[C@@H](CCCNC(=N)N)C(=O)N[C@@H](CCCNC(=N)N)C(=O)N[C@@H](CCCNC(=N)N)C(=O)N[C@@H](Cc1ccccc1)C(=O)N[C@@H](CO)C(=O)N[C@@H](C)C(=O)N[C@@H](Cc1ccc(O)cc1)C(N)=O)C(C)C  FICI (checkerboard; unit not given, added: rifampicin; lower means synergy): 0.13
O=[N+]([O-])c1cc2c(ccc3cc(Br)ccc32)o1  MIC90 (REMA): > 32 µg/mL
CC[C@H](C)[C@H](NC(=O)[C@H](CC(C)C)NC(=O)[C@@H](NC(=O)[C@H](CCCNC(=N)N)NC(=O)[C@H](CCCNC(=N)N)NC(=O)[C@H](CCCNC(=N)N)NC(=O)[C@@H](N)CCCNC(=N)N)[C@@H](C)CC)C(=O)N[C@@H](CCCNC(=N)N)C(=O)N[C@@H](CCCNC(=N)N)C(=O)N[C@H](C(=O)N[C@@H](CC(C)C)C(=O)N[C@@H](CCCNC(=N)N)C(=O)N[C@@H](CC(C)C)C(=O)N[C@@H](CCCNC(=N)N)C(=O)N[C@@H](CO)C(=O)N[C@@H](CO)C(=O)N[C@@H](C)C(=O)N[C@@H](Cc1ccc(O)cc1)C(N)=O)C(C)C  FICI (checkerboard; unit not given, added: rifampicin; lower means synergy): 0.16
CC[C@@H](C)[C@@H](N)C(=O)N[C@@H](C(=O)N[C@H](Cc1ccc(O)cc1)C(=O)N[C@@H](C(=O)N[C@H](CCN)C(=O)N[C@H](CC(C)C)C(=O)N[C@H](CO)C(=O)N[C@H](CCN)C(=O)N[C@@H](C(=O)N[C@H](CCN)C(=O)N[C@H](Cc1c[nH]cn1)C(=O)N[C@H](CCN)C(=O)N[C@H](C)C(=O)N[C@H](CCN)C(=O)N[C@H](CCN)C(N)=O)[C@H](C)CC)[C@H](C)CC)[C@H](C)CC  biofilm reduction (crystal violet; ATCC 25922; 16 µg/mL, 24 h, 37 °C, established biofilm; baseline: untreated): 50%
COc1ccc(CC2NCCc3cc(OC)c(OC)cc32)cc1OC.Cl (stereo not shown)  MIC50 (24 h, 37 °C): > 1600 µM
CC(C)C[C@H](NC(=O)[C@H](CCCCN)NC(=O)OCC1c2ccccc2-c2ccccc21)C(=O)N[C@H](C(=O)N[C@@H](Cc1ccccc1)C(=O)N[C@@H](Cc1ccccc1)C(=O)N[C@@H](CCCCN)C(=O)NCC(=O)N[C@@H](Cc1ccccc1)C(=O)N[C@@H](C)C(=O)N[C@@H](Cc1c[nH]c2ccccc12)C(=O)N[C@@H](CC(N)=O)C(=O)N[C@H](C(=O)N[C@H]1CSSC[C@@H](C(=O)N[C@@H](Cc2c[nH]cn2)C(=O)N[C@@H](CCCNC(=N)N)C(=O)N[C@@H](CCCNC(=N)N)C(=O)N[C@@H](C)C(=O)N[C@@H](CC(N)=O)C(N)=O)NC(=O)[C@H](C(C)C)NC(=O)[C@H](CCCNC(=N)N)NC(=O)[C@H](C(C)C)NC(=O)CNC(=O)[C@H](CC(N)=O)NC(=O)[C@H](CCCNC(=N)N)NC(=O)[C@H](Cc2ccc(O)cc2)NC(=O)[C@H](C(C)C)NC1=O)C(C)C)C(C)C  EC50 (bactericidal activity; ATCC 25922; 24 h): 2.55 µM
C[C@@H](O)[C@H]1C(=O)N2C(C(=O)O)=C(S[C@@H]3CN[C@H](C(=O)N(C)C)C3)[C@H](C)[C@H]12  MIC fold reduction (checkerboard; carbapenem-resistant; concentration not given, added: anionic gold nanoparticle 8 µg/mL; baseline: MIC alone over combination): 32 fold
CC(C)Cc1ccc(C(C)C(=O)O)cc1 (stereo not shown)  SOS response induction (MG1655 RecA-GFP; 10 µM, 4 h): 10%
CCOC(=O)COc1ccc2ccc3oc([N+](=O)[O-])cc3c2c1  MIC90 (REMA): > 32 µg/mL
CC[C@H](C)[C@H](NC(=O)[C@H](CC(C)C)NC(=O)[C@H](CCCNC(=N)N)NC(=O)[C@H](CCCNC(=N)N)NC(=O)[C@H](CCCNC(=N)N)NC(=O)[C@H](CCCNC(=N)N)NC(=O)[C@H](CC(C)C)NC(=O)[C@@H](NC(=O)[C@@H](NC(=O)[C@@H](NC(=O)[C@H](CC(C)C)NC(=O)[C@H](CCCNC(=N)N)NC(=O)[C@H](CO)NC(=O)[C@@H](N)CO)C(C)C)[C@@H](C)CC)[C@@H](C)CC)C(=O)N[C@@H](CO)C(=O)N[C@@H](CCCNC(=N)N)C(=O)N[C@@H](CCCNC(=N)N)C(=O)N[C@@H](CCCNC(=N)N)C(=O)N[C@@H](CCCNC(=N)N)C(N)=O  MIC range: 1 to 2 µM (≈ 2.46 to 4.92 µg/mL)
O=[N+]([O-])c1cc2c(ccc3c4cc([N+](=O)[O-])oc4ccc23)o1  MIC90 (REMA): > 32 µg/mL
O=C/C=C/c1ccccc1  zone of inhibition (MTCC 730; 1000 µg/mL, 18 h): 7 mm
C[C@@H](O)[C@H]1C(=O)N2C(C(=O)O)=C(SCCN=CN)C[C@H]12  MIC fold reduction (checkerboard; carbapenem-resistant; concentration not given, added: anionic gold nanoparticle 8 µg/mL; baseline: MIC alone over combination): 32 fold
C[C@@H](O)[C@H]1C(=O)N2C(C(=O)O)=C(SCCN=CN)C[C@H]12  MIC fold increase (DH5a clone with KPC-100; baseline: empty vector strain): 8 fold
CC[C@H](C)[C@H](NC(=O)[C@H](CC(C)C)NC(=O)[C@@H](NC(=O)[C@H](CCCNC(=N)N)NC(=O)[C@H](CCCNC(=N)N)NC(=O)[C@H](CCCNC(=N)N)NC(=O)[C@@H](N)CCCNC(=N)N)[C@@H](C)CC)C(=O)N[C@@H](CCCCN)C(=O)N[C@@H](CCCCN)C(=O)N[C@H](C(=O)N[C@@H](CC(C)C)C(=O)N[C@@H](CCCCN)C(=O)N[C@@H](CC(C)C)C(=O)N[C@@H](CCCCN)C(=O)N[C@@H](CO)C(=O)N[C@@H](CO)C(=O)N[C@@H](C)C(=O)N[C@@H](Cc1ccc(O)cc1)C(N)=O)C(C)C  FICI (checkerboard; unit not given, added: rifampicin; lower means synergy): 0.19
CC[C@@H](C)[C@@H](N)C(=O)N[C@@H](C(=O)N[C@H](Cc1ccc(O)cc1)C(=O)N[C@@H](C(=O)N[C@H](CCCNC(=N)N)C(=O)N[C@H](CC(C)C)C(=O)N[C@H](CO)C(=O)N[C@H](CCCNC(=N)N)C(=O)N[C@@H](C(=O)N[C@H](CCCNC(=N)N)C(=O)N[C@H](Cc1c[nH]cn1)C(=O)N[C@H](CCCNC(=N)N)C(=O)N[C@H](C)C(=O)N[C@H](CCCNC(=N)N)C(=O)N[C@H](CCCNC(=N)N)C(N)=O)[C@H](C)CC)[C@H](C)CC)[C@H](C)CC  MBC (ATCC 25922, 100% human serum; 20 h, 37 °C): > 64 µg/mL
C[C@@H](O)[C@H]1C(=O)N2C(C(=O)O)=C(S[C@@H]3CN[C@H](C(=O)N(C)C)C3)[C@H](C)[C@H]12  MIC fold increase (DH5a clone with KPC-136; baseline: empty vector strain): > 16 fold

Some of these lines once more:
CC[C@@H](C)[C@@H](N)C(=O)N[C@@H](C(=O)N[C@H](Cc1ccc(O)cc1)C(=O)N[C@@H](C(=O)N[C@H](CCN)C(=O)N[C@H](CC(C)C)C(=O)N[C@H](CO)C(=O)N[C@H](CCN)C(=O)N[C@@H](C(=O)N[C@H](CCN)C(=O)N[C@H](Cc1c[nH]cn1)C(=O)N[C@H](CCN)C(=O)N[C@H](C)C(=O)N[C@H](CCN)C(=O)N[C@H](CCN)C(N)=O)[C@H](C)CC)[C@H](C)CC)[C@H](C)CC  biofilm reduction (crystal violet; ATCC 25922; 16 µg/mL, 24 h, 37 °C, established biofilm; baseline: untreated): 50%
O=[N+]([O-])c1cc2c(ccc3c4cc([N+](=O)[O-])oc4ccc23)o1  MIC90 (REMA): > 32 µg/mL
C[C@@H](O)[C@H]1C(=O)N2C(C(=O)O)=C(S[C@@H]3CN[C@H](C(=O)N(C)C)C3)[C@H](C)[C@H]12  MIC fold reduction (checkerboard; carbapenem-resistant; concentration not given, added: anionic gold nanoparticle 8 µg/mL; baseline: MIC alone over combination): 32 fold
